Published values collected from several papers.
Every numbered part comes from another study and shows a few of its results, in no order.
Sequence of UniProt O95819 (whole entry, looked up): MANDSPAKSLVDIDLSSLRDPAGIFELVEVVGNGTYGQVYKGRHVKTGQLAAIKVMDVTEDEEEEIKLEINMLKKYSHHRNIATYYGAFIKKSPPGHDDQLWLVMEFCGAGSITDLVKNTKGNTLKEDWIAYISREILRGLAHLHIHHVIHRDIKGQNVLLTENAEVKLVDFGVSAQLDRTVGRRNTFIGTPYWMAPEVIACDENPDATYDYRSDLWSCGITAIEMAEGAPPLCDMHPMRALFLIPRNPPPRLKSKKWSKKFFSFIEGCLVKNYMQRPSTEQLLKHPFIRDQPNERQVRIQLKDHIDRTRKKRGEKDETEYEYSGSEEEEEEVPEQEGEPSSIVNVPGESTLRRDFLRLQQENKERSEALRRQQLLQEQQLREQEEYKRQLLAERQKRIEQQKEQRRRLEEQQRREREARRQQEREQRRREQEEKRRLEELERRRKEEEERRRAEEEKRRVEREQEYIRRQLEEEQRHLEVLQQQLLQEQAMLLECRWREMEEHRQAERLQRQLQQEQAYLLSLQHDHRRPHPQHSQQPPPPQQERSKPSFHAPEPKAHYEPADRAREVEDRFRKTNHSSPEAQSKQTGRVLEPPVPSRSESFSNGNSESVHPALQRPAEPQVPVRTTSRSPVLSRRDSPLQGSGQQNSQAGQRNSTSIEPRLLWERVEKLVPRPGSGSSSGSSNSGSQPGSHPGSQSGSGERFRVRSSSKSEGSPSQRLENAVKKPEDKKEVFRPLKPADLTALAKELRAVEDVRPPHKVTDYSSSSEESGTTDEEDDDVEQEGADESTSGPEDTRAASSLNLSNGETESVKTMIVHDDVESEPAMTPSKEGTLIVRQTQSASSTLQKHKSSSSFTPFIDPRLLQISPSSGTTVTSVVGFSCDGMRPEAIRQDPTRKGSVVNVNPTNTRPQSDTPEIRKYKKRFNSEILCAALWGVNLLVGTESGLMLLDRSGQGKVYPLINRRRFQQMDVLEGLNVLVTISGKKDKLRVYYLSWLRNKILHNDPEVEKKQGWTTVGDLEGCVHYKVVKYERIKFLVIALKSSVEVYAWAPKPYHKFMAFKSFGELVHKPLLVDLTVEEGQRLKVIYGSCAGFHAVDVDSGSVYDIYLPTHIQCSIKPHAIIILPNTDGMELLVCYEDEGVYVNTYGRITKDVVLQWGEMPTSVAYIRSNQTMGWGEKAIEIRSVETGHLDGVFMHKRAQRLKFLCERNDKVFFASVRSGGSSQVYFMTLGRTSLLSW

Sample 1 — method: RNA Bind-n-Seq; molecule type: RNA; medium: in vitro; tested at: 365 nM; baseline: no-protein control; reading: higher = stronger binding
Target: RNA binding protein fox-1 homolog 2, RRM domain, GST-SBP tag (RBFOX2, Homo sapiens, UniProt O43251-10, residues 100-194)
Notes: natural RNA segment, single round, ends assumed
Shared flanks, not repeated: GGGAGUUCUACAGUCCGACGAUC … UGGAAUUCUCGGGUGCCAA
Residues (chain): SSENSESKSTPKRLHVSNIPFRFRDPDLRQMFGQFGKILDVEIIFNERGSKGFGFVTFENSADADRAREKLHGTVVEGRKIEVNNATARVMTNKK
Strand	RBNS enrichment (R)
CAUGUGGAUAGAUAGAAGUGUCCUGUUUUGAUACUAAUUUUGAAAGUUGAUUAUCUUCUCUUGAUAUCUUGGUUAAAACUGGCCACAAGAUAAACCAUUUGGAUAUAUUU	0.335
UAAUAUCAAAAGAAAUUUGAUAUUUUUGUAAGAAUUUCCUGAGUACAAUGCUUUAUUGAAAAGCUUCAAAGUUCAUUAAGCUGAUGCAGUGCUUAGAGAGAGCAAUGUCC	0.639
UCAGUUUCAGCAACAAACAAACUUUGUUUGGGAAGCUAUGGAGGAGGACUUUUAGAUUUAGUGAAGAUGGUAGGGUGGAAAGACUUAAUUUCCUUGUUGAGAACAGGAAA	0.658
UUGUAGGAUCUGCUAGGACCCUGCAGCUGUGCUGCCGCCACCUCUGCUCCAGAGUGUCCCAGCCAACCCUCGGAAGAUGGGAUUGCCAGUCAGCCCUGCCUCACCAUGCC	0.215
CCCACGCUGUGCUUCUCUGCUUGCAUUUCCAGGGAGACCGUGUUUUGAACCGCAUCACCUUUCCUUGGCUUAAGCAUUCGUUACUAAUGGCAGGAAAGUCUUCCCUUCUA	2.15
AGCAUAACUCAUUUACCUGUAUACUAAAACCCCUGUUGUACUGAUUUUUUUUUAUAAUAAGCCUUUUUACCUCUGUAAAAAUAUAUAUAUAUACAAGUGUAUGAUGUACA	0.961
CACAUACAUUUUUAAAAUCGAGUAUAGAAUUCACCAGGGUUGAAAAUGACUGGCAGACAAUAUAUGCAUGGACCUUGAUAUGGGUGGAUAGAUUAAGGUUGAACCUUAGA	5.34
UCUCCCACAACACGUGGGAAUUCUGGUAGAUACAAUUUCAAGUUGAGAUUUGGGUGGGGACAUAGCCAAACCAUAUCAUUCUACCCCUGGCCCCUCCAAAUCUCAUGUCC	0.37

Sample 2 — method: EMSA with sequencing; molecule type: double-stranded DNA, one strand shown; medium: in vitro; tested at: 10 and 20 nM; baseline: negative control set to 0; reading: higher = stronger binding
Target: Hepatocyte nuclear factor 3-alpha (Foxa1, Mus musculus, UniProt P35582, residues 1-468, full length assumed)
Sequence of UniProt P35582 (whole entry, looked up): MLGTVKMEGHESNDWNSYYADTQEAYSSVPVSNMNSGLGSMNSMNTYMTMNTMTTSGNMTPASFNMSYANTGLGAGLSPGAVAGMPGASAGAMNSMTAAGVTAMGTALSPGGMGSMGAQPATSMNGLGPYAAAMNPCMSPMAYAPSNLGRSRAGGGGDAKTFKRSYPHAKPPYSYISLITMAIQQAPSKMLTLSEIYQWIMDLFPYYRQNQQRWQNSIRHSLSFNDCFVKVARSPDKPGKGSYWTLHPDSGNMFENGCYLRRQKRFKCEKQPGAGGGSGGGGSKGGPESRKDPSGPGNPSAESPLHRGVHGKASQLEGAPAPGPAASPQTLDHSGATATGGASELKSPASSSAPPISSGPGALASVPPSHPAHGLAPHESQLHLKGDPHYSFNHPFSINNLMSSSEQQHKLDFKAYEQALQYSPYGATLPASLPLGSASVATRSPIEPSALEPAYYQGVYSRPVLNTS
Notes: whole designed probe, mean of two concentrations, ends assumed
Shared flanks, not repeated: GTGAGCGGTGCCCATTGATGGGGAAC … TTTCACTGGGATCGTGGGGAC
Strand	normalised bound fraction [ratio]
CCCAGTGCAAAGTCCTTGGGTTAGGTCACGGAAAAAAATAAATAGTCCAGGAGATGTTTTTATCTCCTTAGTCAGAAAACCTGAGCTGAAATGCAAACAAGTCCTCAAAGGATCAGAGGTAAATACCAGTCACTCAGTAAATACTGTTGGCTAATTCCTTAATATTACTTTACAGTAAAAGCAAACGATGGAA	0.409
AGTGGCAGGTTCCCTGCTGGGATTTAGCTGGAGAACAAAGTAAGTTTGCATAATGAGTGTGAGAGCTGTAAAGAATAAACTGTGAAGTGCTGTGCAAATATTAGCTCTCCTGTCTCTTCCAGCTCTGGCCTTCCCTTAACAGTGTGGCTGAAAGCCCTTTGTCTGAGGACAAGGACAGATAAGCTAGTTAGAG	0.382
CAGCTGGAATGCCTGGCGGAGGCTCCGGTGTCAAGAGCCTGAGAACCTGAGAACCCACCCGAGGCCCCCGCCAGGCAGCGCCGCCAGCAGATTTATTTACTCTGGGGCCCTATCTCCGCGCCATCGGGCCAGATATTTGCCCTGGCGGGATCCAGGGAAACTGCGGTTTTTGTTATGATAGCTGGGGCAGGGA	0.348
TAAAGTTTTGATTTTTAAAATGATTCCAATGCTTCTGACATAAAAAAATCTGTTGCTGAAATACTTGAATACTATAATATATTAAATGATCTAAGTAATCTTAGGACTACAGAAAAAAGAATATGAGAAAAGGATCAAAAGGAAGTAACTGATAAAAGTCAAGGAGAAATCAAAATTTAAATAAAAGAAATGG	0.0481
GCAATAGCAAAAGTAAGGCAGGGAAGTACAAATTCAATAGCAAACAAATAGTGGTATGGCCATGTCACAATACCCTGCGGCCATTTCAAGTGATGTTTACAAAGTTTGTAGGCAGACAGTCACCTCGTATTTACAAAGCTCCGACTGTGCGGGGCGCTGGGTTGGGCACGGAGCAGATAGGGCCAGAAGGCCA	0.394
GTGTGTGCGCGCGCGTGTGTGTGTGTTTTCTTAAGCCGGGCTATTCAAACCCTGCTGCAATTCTCCGGTAAAGGCAATGATTCATGGCATAATGCAAATAAACGGATTGCAAACGGCGCGGTTCGCGCACTTTGCAGCCGGCCCGGTGGAGCAGCCAGTGCCGGATTTCTCCCTTTTTTTGCAGATCTGCAGA	0.394
CCCTCATCCTGGGTGTCGGGGTGGGAGGTGTTCTCATCATGAATGGGAGGCGTACCCAGATCCAGCTCTGCCTTTTTTTAACCAAACCAGAGTGTAAACAAATGGCTGTGTGTCACACCATAATCGACATAGCAAGATATGATACATGCCAGGAGAGAAAAAGAAAGTGCTGATGGAAAAATAATCTCATTAG	0.347
CTTGGATTCTCTATTCCTGGCCTTTTATAAATTCCTTTGTCCCTGGCTGGGATCCAGCTGGCTTACACAACTGTCAGTGTAATCTCTATCAATATTTACACAAGGGGTCATGCCATCAAAGAAACTAGAGAAATATCAGGATTAGTGCTTTCACTGGATAAAGTTTGAGGATTGAAGAACCTTCTGTTGAGTG	0.465

Sample 3 — method: RNA Bind-n-Seq; molecule type: RNA; medium: in vitro; tested at: 20 nM; notes: 6-mer, flanks averaged, single round; with: 150 mM KCl; baseline: input library; reading: higher = stronger binding
Target: TAR DNA-binding protein 43, full length, His tag (TARDBP, Homo sapiens, UniProt Q13148, residues 1-414)
Strand	6-mer enrichment (R)
UCACUU	0.562
GAUAUG	0.892
GGCCCG	1.32
CCUCUC	0.569
GUUAUU	0.66
AUUCGU	0.562
ACAUCU	0.561
ACCGUC	0.615

Mixed results
SMILES	target	test	conditions	measurement	result
CC1=C(C#N)[C@@H](c2ccc3[nH]nc(C)c3c2)C(C#N)=C(c2ccc(Cl)cc2)N1	Mitogen-activated protein kinase kinase kinase kinase 4 (MAP4K4, Homo sapiens, UniProt O95819)	cell-free assay, competition with immobilised ligand	1 µM	remaining binding	100%

Some of these lines once more (sample 2):
Strand	normalised bound fraction [ratio]
CCCAGTGCAAAGTCCTTGGGTTAGGTCACGGAAAAAAATAAATAGTCCAGGAGATGTTTTTATCTCCTTAGTCAGAAAACCTGAGCTGAAATGCAAACAAGTCCTCAAAGGATCAGAGGTAAATACCAGTCACTCAGTAAATACTGTTGGCTAATTCCTTAATATTACTTTACAGTAAAAGCAAACGATGGAA	0.409
AGTGGCAGGTTCCCTGCTGGGATTTAGCTGGAGAACAAAGTAAGTTTGCATAATGAGTGTGAGAGCTGTAAAGAATAAACTGTGAAGTGCTGTGCAAATATTAGCTCTCCTGTCTCTTCCAGCTCTGGCCTTCCCTTAACAGTGTGGCTGAAAGCCCTTTGTCTGAGGACAAGGACAGATAAGCTAGTTAGAG	0.382
CAGCTGGAATGCCTGGCGGAGGCTCCGGTGTCAAGAGCCTGAGAACCTGAGAACCCACCCGAGGCCCCCGCCAGGCAGCGCCGCCAGCAGATTTATTTACTCTGGGGCCCTATCTCCGCGCCATCGGGCCAGATATTTGCCCTGGCGGGATCCAGGGAAACTGCGGTTTTTGTTATGATAGCTGGGGCAGGGA	0.348
